Measurements pooled from the literature.
Compare with care: the assays were run in different laboratories. Several values in a cell are separate wells, animals, samples, runs or records. ± gives the spread as reported. Converted amounts (≈) assume the structure as drawn.

Cc1c(COC(=O)[C@@H]2[C@H](/C=C(\Cl)C(F)(F)F)C2(C)C)cccc1-c1ccccc1 (racemic)
enzyme contribution to clearance (measured: CYP3A4; human, age 6 months, recombinant human CYP3A4; 0.1 µM): 17.1%

COc1cc2c(Oc3ccc4[nH]c(C)cc4c3F)ccnc2cc1OCC1(N)CC1
Hypertension incidence (paediatric recurrent refractory sarcoma; 8 mg): 0%

COc1ncccc1-c1cnn2ccc(N3CCN(C(=O)OC(C)C)CC3)nc12
drug concentration (mouse nerve ligation model, brain; oral, 30 mg/kg, 120 min after last dose, repeat dosing day 4): 19 µM

[O-][S+]1CCc2nc(N3CCC(c4ncc(Cl)cn4)CC3)nc(NC3(CO)CCC3)c21 (stereo not shown)
subjects with adverse events (phase I trial, measured: nervous system disorders; healthy male volunteers; dose not given, single rising dose, all cohorts): 41.7%

O[C@H]1CCCN[C@@H]1CCCn1cnc2c(Cl)c(Cl)ccc21
AUCtau (healthy CYP2D6 EM and UM, plasma; oral, 150 mg multiple doses): 887 ng·h/mL

Cn1cc(-c2nc(N[C@@H]3CCCC[C@@H]3N)c(F)c3c2C(=O)NC3)cn1
hemorrhagic adverse events (measured: Esophageal haemorrhage; patients with relapsed or refractory AML; oral, dose not given, all doses): 1 number of patients

C[C@@H]1NC(=O)[C@H](CCCCNC(=O)CO/N=C/C(=O)NCCCC[C@@H]2NC(=O)[C@@H](Cc3ccccc3)NC(=O)[C@H](CC(=O)O)NC(=O)CNC(=O)[C@H](CCCNC(=N)N)NC2=O)NC(=O)CNC(=O)[C@@H]2CCCN2C(=O)[C@H](CCCCNC(=O)CO/N=C/C(=O)NCCCC[C@@H]2NC(=O)[C@@H](Cc3ccccc3)NC(=O)[C@H](CC(=O)O)NC(=O)CNC(=O)[C@H](CCCNC(=N)N)NC2=O)NC(=O)[C@H](CCCCNC(=O)[C@H](CCCCN)NC(=O)[C@H](Cc2ccccc2)NC(=O)CNC(=O)CN2CCCNCCNCCCNCC2)NC(=O)[C@H](CCCCNC(=O)CO/N=C/C(=O)NCCCC[C@@H]2NC(=O)[C@@H](Cc3ccccc3)NC(=O)[C@H](CC(=O)O)NC(=O)CNC(=O)[C@H](CCCNC(=N)N)NC2=O)NC(=O)CNC(=O)[C@@H]2CCCN2C(=O)[C@H](CCCCNC(=O)CO/N=C/C(=O)NCCCC[C@@H]2NC(=O)[C@@H](Cc3ccccc3)NC(=O)[C@H](CC(=O)O)NC(=O)CNC(=O)[C@H](CCCNC(=N)N)NC2=O)NC1=O [copper-64 labelled]
tissue uptake (PET imaging; mouse, U-87 MG tumour xenograft, liver; intravenous, 24 h): 17 ± 1.85 %ID/g

O=C1Nc2cc3[nH]nc(-c4ccncc4)c3cc2CN1Cc1ccccc1
patients with diarrhoea (CTCAE v4.03; advanced solid tumour patients; intravenous, 7.2 mg/kg): 67%

CC[C@H](C)[C@H](NC(=O)[C@H](Cc1ccccc1)NC(=O)[C@H](CCC(=O)O)NC(=O)[C@H](CCCNC(=N)N)NC(=O)[C@H](C)NC(=O)[C@H](C)NC(=O)[C@H](CCC(N)=O)NC(=O)[C@H](CCC(=O)O)NC(=O)[C@H](CCC(=O)O)NC(=O)[C@H](CC(C)C)NC(=O)[C@H](Cc1ccc(O)cc1)NC(=O)[C@H](CO)NC(=O)[C@H](CO)NC(=O)[C@@H](NC(=O)[C@H](CC(=O)O)NC(=O)[C@H](CO)NC(=O)[C@@H](NC(=O)[C@H](Cc1ccccc1)NC(=O)[C@@H](NC(=O)CNC(=O)[C@H](CCC(=O)O)NC(=O)[C@H](C)NC(=O)CCc1cnc[nH]1)[C@@H](C)O)[C@@H](C)O)C(C)C)C(=O)N[C@@H](C)C(=O)N[C@@H](Cc1c[nH]c2ccccc12)C(=O)N[C@@H](CC(C)C)C(=O)N[C@H](C(=O)N[C@@H](CCCNC(=N)N)C(=O)NCC(=O)N[C@@H](CCCNC(=N)N)C(=O)N[C@@H](CCCCNC(=O)COCCOCCNC(=O)COCCOCCNC(=O)CC[C@H](NC(=O)CCCCCCCCCCCCCCCCC(=O)O)C(=O)O)C(=O)NCC(=O)NCC(=O)N[C@@H](CO)C(=O)N[C@@H](CCCCNC(=O)[C@H](CCCCNC(=O)[C@H](CCCCNc1c(NCCCCCN(O)C(=O)CCC(=O)NCCCCCN(O)C(=O)CCC(=O)NCCCCCN(O)C(C)=O)c(=O)c1=O)Nc1c(NCCCCCN(O)C(=O)CCC(=O)NCCCCCN(O)C(=O)CCC(=O)NCCCCCN(O)C(C)=O)c(=O)c1=O)NC(=O)[C@H](CCCCNc1c(NCCCCCN(O)C(=O)CCC(=O)NCCCCCN(O)C(=O)CCC(=O)NCCCCCN(O)C(C)=O)c(=O)c1=O)Nc1c(NCCCCCN(O)C(=O)CCC(=O)NCCCCCN(O)C(=O)CCC(=O)NCCCCCN(O)C(C)=O)c(=O)c1=O)C(=O)O)C(C)C [zirconium-89 labelled]
tissue uptake (ex vivo gamma counting; male Sprague-Dawley rats, spleen; intravenous, 1 nmol, 24 h): 1.1 %ID/g

C=C(CN(C(=O)c1c(C(F)F)nn(C)c1F)C1CC1)c1ccc(Cl)cc1Cl
mortality (static acute toxicity test; zebrafish (Brachydanio rerio); 1.20 mg a.i./L, 72 h): 70%

Clc1ccc(-c2ccccc2)cc1
serum free thyroxine (rat Sprague-Dawley female, serum; inhalation, 23 µg/rat, 4 h): 49 ± 11 pmol/L

COc1ccc2nc3cc(Cl)ccc3c(Nc3cc(CN4CCCC4)c(O)c(CN4CCCC4)c3)c2n1
ALT activity (mouse, blood; intraperitoneal, 57 mg/kg): 0.33 U/L

CC(=O)c1c(C)c2cnc(Nc3ccc(C4CCN(CCS(C)(=O)=O)CC4)cn3)nc2n(C2CCCC2)c1=O
AUC(0-t) (beagle dog, male, fasted, blood; oral gavage, 15 mg/kg, acidified methylcellulose vehicle): 1120 ng·h/mL

O=S(=O)(Nc1ccccc1)c1ccc(NC(=S)Nc2ccccc2)cc1
blood chemistry level (measured: TRIG; female mouse, blood; oral, 5 mg/kg daily, 14 days): 177 mg/dL

CCc1ccc(CC/C=C/c2ccc3c(c2)C(=O)CC3)cc1
Globulin (Sprague-Dawley rat, male; oral, 30 mg/kg/day, 14 days): 21.1 g/L

COc1ccnc(C(=O)N[C@H]2COC(=O)[C@H](Cc3ccccc3)[C@@H](OC(=O)C(C)C)[C@H](C)OC2=O)c1OCOC(=O)C(C)C
NOAEL (carcinogenicity; mouse; 18 month, highest dose tested): 32.1 mg/kg/day

O=C(Nc1ccccc1)C1CCN(C(=O)Oc2cccnc2)CC1
subjects with nervous system disorders (adverse event reporting; healthy women; oral, 60 mg, 7 days): 71.4%

O=C1O[C@H]2[C@@H]3OC(=O)c4cc(O)c(O)c(O)c4-c4c(O)c(O)c5oc(=O)c6c(c(O)c(O)c7oc(=O)c4c5c76)-c4c(cc(O)c(O)c4O)C(=O)OC[C@H]3OC(O)[C@@H]2OC(=O)c2cc(O)c(O)c(O)c2-c2c1cc(O)c(O)c2O (mixture of isomers)
liver weight (acute oral toxicity; BALB/c mice; oral, dose not given): 1.41 g

O=C(O)CCCOc1ccc(F)cc1-c1cc(-c2ccccc2C(F)(F)F)n(-c2ccccc2)n1
serum protein fraction (measured: α1-glb; Crl:CD(SD) rats, female, serum; iv, 25 µg/kg, 14 days): 18.8 ± 0.9%

CC1(C)c2nc(-c3ccc(F)cc3)c(Nc3ccc(F)cc3)n2CCN1C(=O)CN
concentration at 24 h (NMRI mouse Plasmodium berghei-infected, blood; oral, 5 mg/kg, 24 h, monotherapy): 0.077 µM

CCN1[C@@H](C(=O)NC23CCC(C(=O)O)(CC2)CC3)[C@H](c2cccc(Cl)c2F)[C@]2(C(=O)Nc3cc(Cl)ccc32)C12CCCCC2
grade ≥3 Anemia incidence (patients with advanced solid tumours; oral, 200 mg): 50%

CO[C@H]1C[C@@H]2CC[C@@H](C)[C@@](O)(O2)C(=O)C(=O)N2CCCC[C@H]2C(=O)O[C@H]([C@H](C)C[C@@H]2CC[C@@H](OC(=O)NCCOCCOCCOCCOCCOCCOCCOCCOCCC(=O)N3CCc4cc(Cn5nc(-c6ccc7oc(N)nc7c6)c6c(N)ncnc65)ccc4C3)[C@H](OC)C2)C[C@@H](O)[C@H](C)/C=C(\C)[C@@H](O)[C@@H](OC)C(=O)[C@H](C)C[C@H](C)/C=C/C=C/C=C/1C
any TRAE incidence (phase 1 dose escalation; advanced solid tumour patients; intravenous, 6 mg weekly, any grade): 91.7%

NCCCC[C@@H]1NC(=O)[C@@H](Cc2c[nH]c3ccccc23)NC(=O)[C@H](c2ccccc2)NC(=O)[C@@H]2C[C@@H](OC(=O)NCCN)CN2C(=O)[C@H](Cc2ccccc2)NC(=O)[C@H](Cc2ccc(OCc3ccccc3)cc2)NC1=O
subjects with injection-site pruritus (healthy human volunteers; 1950 µg twice daily): 28%

COc1ccc(-c2c(-c3ccc(C#N)c(F)c3)nc(N3CCC(N)CC3)n(C)c2=O)cc1F
grade 3-4 TRAE incidence (measured: decreased appetite; human patients; oral, dose not given, dose escalation): 0%

C[C@]1(CO)Cc2ncn(-c3ccc(C#N)c(Cl)c3)c2C(=O)O1
any TEAE (human; all doses, European multiple ascending dose): 40%

C[C@@H](NC(=O)N1C(=O)[C@H](Cc2ccnc(N)c2)[C@H]1C(=O)O)C1CCCCC1
incidence of mild AEs (healthy adult Chinese volunteers; continuous intravenous infusion, 1.0 mg/kg/h, 5-day infusion, CTCAE 5.0 grading): 37.5%

CC(C)[C@@H]1NC(=O)CNC(=O)[C@H](CC(N)=O)NC(=O)[C@H](CCCNC(=N)N)NC(=O)[C@H](Cc2ccc(O)cc2)NC(=O)[C@H](C(C)C)NC(=O)[C@@H](NC(=O)[C@@H](NC(=O)[C@H](CC(N)=O)NC(=O)[C@H](Cc2c[nH]c3ccccc23)NC(=O)[C@H](C)NC(=O)[C@H](Cc2ccccc2)NC(=O)CN)C(C)C)CSSC[C@@H](C(=O)N[C@@H](Cc2cnc[nH]2)C(=O)N[C@@H](CCCNC(=N)N)C(=O)N[C@@H](CCCNC(=N)N)C(=O)N[C@@H](C)C(=O)N[C@@H](CC(N)=O)C(N)=O)NC(=O)[C@H](C(C)C)NC(=O)[C@H](CCCNC(=N)N)NC1=O
remaining peptide (HPLC; mouse kidney homogenate; 2560 µM, 2.00 h, 37 °C, 50 mg/mL tissue): 54.3%

COc1ccc(CCC2CCCC(CCc3ccc(OC)cc3)N2C[C@@H](O)CO)cc1.Cl (stereo in doubt)
APD90 change (rabbit Purkinje fibres; 0.1 µM, cycle length 1 s; reference: baseline): 23.8 ± 1.4%

CCN1CCN(Cc2ccc(Nc3ncc(F)c(-c4cc(F)c5nc6n(c5c4)[C@H](C)CCC6)n3)nc2)CC1
blood creatinine increased incidence (Phase Ia dose escalation; patients with advanced solid tumours; dose not given, monotherapy, any grade TEAE): 75%

FC(F)(F)Oc1cccc(-c2ccnc3[nH]c(C(F)(F)F)nc23)c1
NOAEL (mouse, C57BL/6, male; oral gavage, 24 h): ≤ 1000 mg/kg

COc1cccc(Oc2ccccc2NC(=O)CNC(=O)c2cccc3ccccc23)c1
serum globulin (esterase-deficient SCID mice, male; oral, 100 mg/kg/day, 14 days, toxicity study): 2.3 g/dL and 2.4 g/dL and 2.2 g/dL

C[C@]1(O)C[C@@](N)(c2ccc(-c3nc4n(c3-c3ccccc3)COc3ccncc3-4)cc2)C1
patients with Diarrhea TEAE (human, advanced or metastatic solid tumours; dose not given, all patients, any grade): 23.5%

N[C@@H]1c2ccccc2OC12CCN(c1cnc3c(N4CCCc5ncccc54)n[nH]c3n1)CC2
dose-limiting toxicity (advanced metastatic solid tumour patients; oral, 100 mg once daily, cycle 1, 21 days): 0%

CCOC(=O)C(CC)(CCCSC)NC(=O)c1ccc(C2CC2)c(Cc2ccc(F)cc2)n1 (stereo not shown)
kinetic solubility (aqueous buffer with DMSO): 2.9 µg/mL (≈ 6.14 µM)
